Results collected from several papers.
Each line is one published result; not all experiments were run side by side. Several values in a cell are separate wells, animals, samples, runs or records. ± gives the spread as reported.

C=CC(=O)N1CCC[C@@H](c2ccc(C(N)=O)c3[nH]ccc23)C1  inhibition (TMD8 RAC2 knockout; calcium flux, FLIPR; concentration not given, 4 h preincubation): 73.4%
Cc1nn(-c2nc3c(F)cc(F)cc3s2)c(O)c1C(c1ccc(C(F)(F)F)cc1)c1c(C)nn(-c2nc3c(F)cc(F)cc3s2)c1O  inhibition (THP1-Dual; IFN luciferase reporter; 5 µM, added: HT-DNA): 5.08% and 9.85% and 6.78% and 7.88% and 11% and 5.13%
COc1cc2c(cc1OC)[C@@H](Cc1ccc(O)c(Oc3cc4c(cc3OC)CCN(C)[C@@H]4Cc3ccc(O)cc3)c1)N(C)CC2  inhibition (3T3-L1; adipocyte lipid accumulation, Nile Red staining; 10 µM): 25.9 ± 0.9%
COc1ccc2nccc(Cc3cccc(-c4cnn(C5COC5)c4)c3)c2c1  inhibition (A549; mitochondrial oxygen consumption, Seahorse XF96; 10 µM): 86%
C=CC(=O)N1CCC[C@@H](n2nc(-c3ccc(Oc4ccccc4)cc3)c3c(N)ncnc32)C1  inhibition (TMD8 RAC2 knockout; calcium flux, FLIPR; concentration not given, 1 h preincubation): 101%
COc1ccc(Cc2ccnc3ccccc23)cc1OC  inhibition (A549; mitochondrial oxygen consumption, Seahorse XF96; 10 µM): 43%
COc1ccc(C[C@@H]2c3cc(Oc4cc(C[C@@H]5c6cc(OC)c(OC)cc6CCN5C)ccc4O)c(OC)cc3CCN2C)cc1  inhibition (3T3-L1; adipocyte lipid accumulation, Nile Red staining; 2.5 µM): 14.8 ± 1%
C=CC(=O)Nc1cccc(Oc2nc(Nc3ccc(N4CCN(C)CC4)cc3)nc3ccoc23)c1  inhibition (TMD8 RAC2 knockout; calcium flux, FLIPR; concentration not given, 4 h preincubation): 67.2%
COc1cc2ncnc(Cc3ccnc(-c4ccccc4)c3)c2cc1OC  inhibition (A549; mitochondrial oxygen consumption, Seahorse XF96; 10 µM): 0%
COc1cc(C(=O)NS(=O)(=O)c2ccccc2C)ccc1Cc1cn(C)c2ccc(NC(=O)OC3CCCC3)cc12  inhibition (human washed platelets; MPB labelling, measured: platelet surface thiols; 20 µM, added: collagen): 17.4%
COc1ccc2c(Cc3cccc(-c4ccccc4)c3)ccnc2c1  inhibition (A549; mitochondrial oxygen consumption, Seahorse XF96; 10 µM): 61%
COc1cc2c(cc1O)[C@@H](Cc1ccc(O)c(Oc3cc4c(cc3OC)CCN(C)[C@@H]4Cc3ccc(O)cc3)c1)N(C)CC2  inhibition (3T3-L1; adipocyte lipid accumulation, Nile Red staining; 5 µM): 20 ± 0.8%
C=CC(=O)N1CCC([C@@H]2CCNc3c(C(N)=O)c(-c4ccc(Oc5ccccc5)cc4)nn32)CC1  inhibition (TMD8 RAC2 knockout; calcium flux, FLIPR; concentration not given, 4 h preincubation): 99%
c1ccc(-c2cccc(Cc3ccnc4ccc(C5COC5)cc34)c2)cc1  inhibition (A549; mitochondrial oxygen consumption, Seahorse XF96; 10 µM): 23%
O=c1ccn([C@@H]2O[C@H](COP(=O)(O)O)[C@@H](O)[C@H]2O)c(=O)[nH]1  z-scored log2 fold change (binding, equilibrium dialysis LC-MS; 5 µM, thermostabilized A2AR-BRIL construct; baseline: no-protein control, direction not given): 0.256
COc1cc2ncnc(C(=O)c3cccc4ccccc34)c2cc1OC  inhibition (A549; mitochondrial oxygen consumption, Seahorse XF96; 10 µM): 22%
Cc1cc(-c2nc(-c3ccc(OC(F)(F)F)cc3)no2)nn1Cc1ccnc(N2CCN(C3CC3)CC2)c1  inhibition (H460; cell proliferation, Incucyte confluence; 0.001 µM; baseline: vehicle): > 50%
O=P(O)(O)O[C@@H]1[C@H](O)[C@H](O)[C@@H](OP(=O)(O)O)[C@H](OP(=O)(O)O)[C@H]1O  z-scored log2 fold change (binding, equilibrium dialysis LC-MS; 5 µM, thermostabilized A2AR-BRIL construct; baseline: no-protein control, direction not given): -1.06
CC[C@H](C)C(=O)O[C@H]1C[C@@H](C)C=C2C=C[C@H](C)[C@H](CC[C@@H]3C[C@@H](O)CC(=O)O3)[C@H]21  inhibition (3T3-L1; adipocyte lipid accumulation, Nile Red staining; 5 µM): 24.3 ± 0.7%
COc1cc2ncnc(Cc3cccc(-c4ccc(C)cc4)c3)c2cc1OC  inhibition (A549; mitochondrial oxygen consumption, Seahorse XF96; 10 µM): 64%
C=C(c1ccc(O)c(Oc2cc3c(cc2OC)CCN(C)[C@@H]3Cc2ccc(OC)cc2)c1)[C@@H]1c2cc(OC)c(OC)cc2CCN1C  inhibition (3T3-L1; adipocyte lipid accumulation, Nile Red staining; 10 µM): 29.3 ± 1%
CC#CC(=O)N1CCC[C@H]1c1nc(-c2ccc(C(=O)Nc3ccccn3)cc2)c2c(N)nccn12  inhibition (TMD8 RAC2 knockout; calcium flux, FLIPR; concentration not given, 4 h preincubation): 98.5%
COc1cc2c(cc1O)C(Cc1ccc(O)c(-c3c(O)c(OC)cc4c3C(Cc3ccc(O)cc3)N(C)CC4)c1)N(C)CC2 (centres unmarked)  inhibition (3T3-L1; adipocyte lipid accumulation, Nile Red staining; 100 µM): 1.4 ± 0.8%
C[C@H]1CN(C2COC2)CCN1c1ccc(Nc2cc(-c3ccnc(N4CCn5c(cc6c5CC(C)(C)C6)C4=O)c3CO)cn(C)c2=O)nc1  inhibition (TMD8 RAC2 knockout; calcium flux, FLIPR; concentration not given, 2 h preincubation): 99.5%
COc1ccc(C[C@@H]2c3cc(Oc4cc(/C=C5\CN(C)CCc6cc(OC)c(OC)cc65)ccc4O)c(OC)cc3CCN2C)cc1  inhibition (3T3-L1; adipocyte lipid accumulation, Nile Red staining; 5 µM): 18.1 ± 2.6%
COc1ccc2nccc(Cc3ccc(OC)c(OC)c3)c2c1  inhibition (A549; mitochondrial oxygen consumption, Seahorse XF96; 10 µM): 33%

For quick reference, copied from above:
COc1cc2ncnc(C(=O)c3cccc4ccccc34)c2cc1OC  inhibition (A549; mitochondrial oxygen consumption, Seahorse XF96; 10 µM): 22%
O=c1ccn([C@@H]2O[C@H](COP(=O)(O)O)[C@@H](O)[C@H]2O)c(=O)[nH]1  z-scored log2 fold change (binding, equilibrium dialysis LC-MS; 5 µM, thermostabilized A2AR-BRIL construct; baseline: no-protein control, direction not given): 0.256
Cc1nn(-c2nc3c(F)cc(F)cc3s2)c(O)c1C(c1ccc(C(F)(F)F)cc1)c1c(C)nn(-c2nc3c(F)cc(F)cc3s2)c1O  inhibition (THP1-Dual; IFN luciferase reporter; 5 µM, added: HT-DNA): 5.08% and 9.85% and 6.78% and 7.88% and 11% and 5.13%
